Measurements pooled from the literature.
Every numbered part comes from another study and shows a few of its results, in no order. Several values in a cell are separate wells, animals, samples, runs or records.
Sequence of UniProt P51956 (whole entry, looked up): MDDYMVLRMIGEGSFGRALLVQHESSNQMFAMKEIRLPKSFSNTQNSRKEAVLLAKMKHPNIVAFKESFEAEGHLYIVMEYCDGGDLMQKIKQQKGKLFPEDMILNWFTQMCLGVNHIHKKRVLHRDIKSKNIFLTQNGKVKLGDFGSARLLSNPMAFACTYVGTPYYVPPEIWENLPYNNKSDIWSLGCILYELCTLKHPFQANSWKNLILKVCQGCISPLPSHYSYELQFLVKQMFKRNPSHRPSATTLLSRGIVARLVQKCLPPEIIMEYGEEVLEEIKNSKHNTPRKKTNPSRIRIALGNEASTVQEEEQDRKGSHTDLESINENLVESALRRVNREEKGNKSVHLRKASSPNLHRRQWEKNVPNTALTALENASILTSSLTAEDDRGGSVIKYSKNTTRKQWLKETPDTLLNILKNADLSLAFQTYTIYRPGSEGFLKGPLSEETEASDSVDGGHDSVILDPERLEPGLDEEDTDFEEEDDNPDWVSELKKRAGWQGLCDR
Sequence of UniProt Q9HBH9 (whole entry, looked up): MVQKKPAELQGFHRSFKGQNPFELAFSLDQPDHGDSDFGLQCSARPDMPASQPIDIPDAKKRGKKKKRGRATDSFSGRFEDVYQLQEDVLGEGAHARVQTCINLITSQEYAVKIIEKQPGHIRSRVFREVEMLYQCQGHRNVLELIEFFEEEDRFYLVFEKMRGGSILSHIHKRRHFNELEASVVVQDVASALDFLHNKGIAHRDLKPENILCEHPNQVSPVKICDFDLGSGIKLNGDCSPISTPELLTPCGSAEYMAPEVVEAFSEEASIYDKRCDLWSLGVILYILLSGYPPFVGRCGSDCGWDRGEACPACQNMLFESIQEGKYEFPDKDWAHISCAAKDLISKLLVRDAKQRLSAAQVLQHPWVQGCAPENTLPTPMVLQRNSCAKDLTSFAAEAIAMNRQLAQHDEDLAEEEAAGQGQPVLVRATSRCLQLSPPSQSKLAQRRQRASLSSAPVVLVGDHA
Sequence of UniProt P11802 (whole entry, looked up): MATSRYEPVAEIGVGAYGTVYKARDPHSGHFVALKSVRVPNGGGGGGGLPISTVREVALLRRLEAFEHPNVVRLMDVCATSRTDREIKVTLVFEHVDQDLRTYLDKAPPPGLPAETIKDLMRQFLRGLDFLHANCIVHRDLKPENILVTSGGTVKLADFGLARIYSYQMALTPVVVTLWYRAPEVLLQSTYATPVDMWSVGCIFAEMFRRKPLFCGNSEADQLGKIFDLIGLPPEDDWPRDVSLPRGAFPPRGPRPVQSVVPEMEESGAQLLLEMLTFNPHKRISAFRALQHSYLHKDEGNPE
Sequence of UniProt Q13233 (whole entry, looked up): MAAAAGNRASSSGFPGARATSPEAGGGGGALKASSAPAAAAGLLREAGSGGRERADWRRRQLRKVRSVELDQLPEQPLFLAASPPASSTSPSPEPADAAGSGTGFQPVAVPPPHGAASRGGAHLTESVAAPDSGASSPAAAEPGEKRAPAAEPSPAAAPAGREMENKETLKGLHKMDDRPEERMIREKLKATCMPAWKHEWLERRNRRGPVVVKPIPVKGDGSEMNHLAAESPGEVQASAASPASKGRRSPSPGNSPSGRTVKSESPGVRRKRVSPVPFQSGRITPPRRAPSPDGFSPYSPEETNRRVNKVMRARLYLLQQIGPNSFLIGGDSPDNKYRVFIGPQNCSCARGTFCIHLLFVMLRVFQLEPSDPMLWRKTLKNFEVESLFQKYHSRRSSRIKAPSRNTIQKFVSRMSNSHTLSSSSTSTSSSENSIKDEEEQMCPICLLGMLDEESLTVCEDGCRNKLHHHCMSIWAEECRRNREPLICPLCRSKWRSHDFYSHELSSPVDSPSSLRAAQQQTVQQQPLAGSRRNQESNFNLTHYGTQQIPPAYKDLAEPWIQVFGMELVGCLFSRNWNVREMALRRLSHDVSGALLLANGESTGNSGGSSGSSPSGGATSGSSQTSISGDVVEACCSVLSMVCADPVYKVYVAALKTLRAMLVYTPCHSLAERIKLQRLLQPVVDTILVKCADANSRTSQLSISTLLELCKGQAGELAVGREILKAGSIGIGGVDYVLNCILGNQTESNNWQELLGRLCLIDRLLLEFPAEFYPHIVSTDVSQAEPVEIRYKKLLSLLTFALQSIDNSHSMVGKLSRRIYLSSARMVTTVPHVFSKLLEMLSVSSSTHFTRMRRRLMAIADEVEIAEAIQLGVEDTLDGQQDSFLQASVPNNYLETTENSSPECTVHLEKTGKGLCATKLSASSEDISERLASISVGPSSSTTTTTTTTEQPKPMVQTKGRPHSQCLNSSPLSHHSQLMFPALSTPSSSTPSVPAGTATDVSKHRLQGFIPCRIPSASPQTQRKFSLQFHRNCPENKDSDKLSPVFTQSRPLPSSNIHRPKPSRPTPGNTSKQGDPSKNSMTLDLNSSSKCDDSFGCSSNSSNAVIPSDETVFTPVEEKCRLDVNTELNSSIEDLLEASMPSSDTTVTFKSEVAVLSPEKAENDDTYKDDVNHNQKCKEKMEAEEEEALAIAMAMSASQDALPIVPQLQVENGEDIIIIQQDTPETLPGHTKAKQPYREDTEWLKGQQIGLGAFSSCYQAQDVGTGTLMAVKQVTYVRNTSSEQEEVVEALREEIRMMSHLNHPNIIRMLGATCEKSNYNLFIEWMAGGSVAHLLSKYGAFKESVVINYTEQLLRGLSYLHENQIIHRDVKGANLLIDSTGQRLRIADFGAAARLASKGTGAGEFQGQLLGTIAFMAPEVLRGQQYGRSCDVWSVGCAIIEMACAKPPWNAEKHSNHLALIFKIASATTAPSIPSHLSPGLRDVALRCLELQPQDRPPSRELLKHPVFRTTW
Sequence of UniProt O00238 (whole entry, looked up): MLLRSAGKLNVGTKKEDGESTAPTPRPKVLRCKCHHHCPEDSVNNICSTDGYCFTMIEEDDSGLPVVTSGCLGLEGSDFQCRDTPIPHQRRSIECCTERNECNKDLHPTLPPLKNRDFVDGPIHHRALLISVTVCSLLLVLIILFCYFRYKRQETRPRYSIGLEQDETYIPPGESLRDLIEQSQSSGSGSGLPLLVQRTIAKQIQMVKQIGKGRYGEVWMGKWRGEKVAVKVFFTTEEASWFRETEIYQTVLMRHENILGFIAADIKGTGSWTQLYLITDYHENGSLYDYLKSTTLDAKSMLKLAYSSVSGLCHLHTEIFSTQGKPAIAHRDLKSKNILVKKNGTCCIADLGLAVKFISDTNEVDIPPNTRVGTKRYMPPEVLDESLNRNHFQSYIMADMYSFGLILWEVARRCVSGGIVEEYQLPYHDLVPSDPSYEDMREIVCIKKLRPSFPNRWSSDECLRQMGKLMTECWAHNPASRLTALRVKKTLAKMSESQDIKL
Sequence of UniProt Q9UIK4 (whole entry, looked up): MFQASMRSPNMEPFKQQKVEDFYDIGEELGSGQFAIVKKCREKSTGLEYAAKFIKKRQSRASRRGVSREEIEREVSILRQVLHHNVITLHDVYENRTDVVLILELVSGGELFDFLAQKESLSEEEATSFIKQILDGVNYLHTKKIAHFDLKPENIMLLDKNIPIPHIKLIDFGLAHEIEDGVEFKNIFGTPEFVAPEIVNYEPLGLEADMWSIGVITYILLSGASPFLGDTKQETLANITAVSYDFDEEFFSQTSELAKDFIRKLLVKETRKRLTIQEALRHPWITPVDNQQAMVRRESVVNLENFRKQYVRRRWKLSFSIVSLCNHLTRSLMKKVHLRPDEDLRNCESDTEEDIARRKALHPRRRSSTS
Sequence of UniProt Q02750 (whole entry, looked up): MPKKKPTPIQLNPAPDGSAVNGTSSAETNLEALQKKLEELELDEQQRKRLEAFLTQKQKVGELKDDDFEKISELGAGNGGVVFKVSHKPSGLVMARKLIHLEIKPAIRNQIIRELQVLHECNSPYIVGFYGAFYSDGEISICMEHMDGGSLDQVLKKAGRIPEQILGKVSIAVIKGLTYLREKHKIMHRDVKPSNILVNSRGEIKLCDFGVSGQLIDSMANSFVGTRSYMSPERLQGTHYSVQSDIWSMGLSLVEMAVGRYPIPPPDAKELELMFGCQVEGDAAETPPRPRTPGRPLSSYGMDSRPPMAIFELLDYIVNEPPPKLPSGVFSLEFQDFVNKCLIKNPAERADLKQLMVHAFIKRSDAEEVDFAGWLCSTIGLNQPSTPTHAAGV

Set 1
Compound: CC(=O)N1CCN(c2nc(OC[C@@H]3CCCN3C)nc3c2CCN(c2cccc4cccc(Cl)c24)C3)C[C@@H]1CC#N
Cell line: HEK293
Technique: CellTiter-Glo
Reference: vehicle
conditions | viability
40 µM | 0.01%
1.25 µM | 76.4% and 72.2% and 57.9%
20 µM | 0.17% and 0.88% and 0.5%
312 nM | 93.5% and 94.6% and 89.6%

Set 2
Compound: O=C1NCCc2[nH]c(-c3ccncc3)cc21
Cell line: HH
Technique: CCK-8
conditions | viability
500 nM | 95.8% and 88.7% and 95.4%
1 nM | 94.5% and 102% and 98.7%
10 nM | 98.1% and 98.6% and 102%

Set 3
SMILES: Cc1nc2cc3nc(-c4cccs4)cnc3cc2n1C
Effect on: enzyme activity
Mode: inhibitor
Concentration: 0.5 µM
Reference: control
target | remaining activity [%]
Death-associated protein kinase 2 (DAPK2, Homo sapiens, UniProt Q9UIK4) | 94.1
Inhibitor of nuclear factor kappa-B kinase subunit beta (IKBKB, Homo sapiens, UniProt O14920) | 103
Cyclin-dependent kinase 4, with cyclin D1 (CDK4, Homo sapiens, UniProt P11802) | 108
Protein kinase C alpha type (PRKCA, Homo sapiens, UniProt P17252) | 74.7

Set 4
Organism: Sarcocystis neurona
Effect on: parasite growth
Concentration: 10 µM
Notes: second screen
SMILES | inhibition [%]
C[C@]12CC[C@@H]3c4ccc(O)cc4CC[C@H]3[C@@H]1CC[C@@H]2O | -71.5
CCCN[C@H]1CCc2nc(N)sc2C1.Cl | -65.5
Cl.Nc1nc2ccc(OC(F)(F)F)cc2s1 | -343

Set 5
Species: mouse
Sample: microsomes or S9
Concentration: 2 µM
Time: 0.5 h
Structure (SMILES) | remaining compound [%]
CCOc1cc(=O)n2c(c1C(=O)Nc1cccc(C(=O)OC)c1)CCCC2 | 42
COc1ccc2[nH]cc(CCNC(=O)CCC(=O)N3Cc4cccn4-c4ccccc43)c2c1 | 3.24
COc1cc2c(cc1OC)CCN(C(C)C(=O)NC(C)C)CC2 (stereo not shown) | 0.19
CC(C)CCN1CC2(CCCN(C(=O)c3ccc(=O)n(C)n3)C2)CCC1=O (stereo not shown) | 56.4
O=C(c1ccc(Cl)s1)N1CCCn2nc(-c3ccncc3)cc2C1 | 39
Cc1cc(C)cc(N(C)S(=O)(=O)c2cn(C)c(=O)[nH]c2=O)c1 | 79.8
O=C(NC1CCN(CCc2ccc(F)cc2)CC1)c1cc2ccccc2s1 | 19.5

Set 6
SMILES: C[C@@]1(Cc2ccc(C#N)cc2)C(=O)N(c2cc(Cl)cc(Cl)c2)c2ncc(C(=O)NC3(c4nc(C5CCC5)no4)CC3)n21
Effect on: cell-free assay
Technique: competition with immobilised ligand
Concentration: 1 µM
target | remaining binding [%]
Hepatocyte growth factor receptor (MET, Homo sapiens, UniProt P08581, Y1235D) | 100
Serine/threonine-protein kinase 36 (STK36, Homo sapiens, UniProt Q9NRP7) | 100
Fibroblast growth factor receptor 1 (FGFR1, Homo sapiens, UniProt P11362) | 100
Serine/threonine-protein kinase PLK1 (PLK1, Homo sapiens, UniProt P53350) | 100
Mitogen-activated protein kinase kinase kinase 6 (MAP3K6, Homo sapiens, UniProt O95382) | 82
Serine/threonine-protein kinase 10 (STK10, Homo sapiens, UniProt O94804) | 100
Mitogen-activated protein kinase kinase kinase kinase 2 (MAP4K2, Homo sapiens, UniProt Q12851) | 100
Tyrosine-protein kinase HCK (HCK, Homo sapiens, UniProt P08631) | 100
Serine/threonine-protein kinase STK11 (STK11, Homo sapiens, UniProt Q15831) | 100
Serine/threonine-protein kinase Nek3 (NEK3, Homo sapiens, UniProt P51956) | 100
Proto-oncogene tyrosine-protein kinase Src (SRC, Homo sapiens, UniProt P12931) | 98
Mitogen-activated protein kinase kinase kinase 19 (MAP3K19, Homo sapiens, UniProt Q56UN5) | 100
Epidermal growth factor receptor (EGFR, Homo sapiens, UniProt P00533, del746-750) | 97
SRSF protein kinase 1 (SRPK1, Homo sapiens, UniProt Q96SB4) | 94
BMP-2-inducible protein kinase (BMP2K, Homo sapiens, UniProt Q9NSY1) | 100
Wee1-like protein kinase (WEE1, Homo sapiens, UniProt P30291) | 100
MAP kinase-interacting serine/threonine-protein kinase 2 (MKNK2, Homo sapiens, UniProt Q9HBH9) | 100
Dual specificity mitogen-activated protein kinase kinase 1 (MAP2K1, Homo sapiens, UniProt Q02750) | 97
Bone morphogenetic protein receptor type-1B (BMPR1B, Homo sapiens, UniProt O00238) | 100
Mitogen-activated protein kinase kinase kinase 1 (MAP3K1, Homo sapiens, UniProt Q13233) | 100
Casein kinase II subunit alpha' (CSNK2A2, Homo sapiens, UniProt P19784) | 100

Single results of other studies
SMILES | test system | conditions | quantity | value
CC(C)n1cnc(-c2ccc(F)cc2)c1-c1ncc(C(=O)Nc2ccc(N3CCN(C)CC3)cc2)[nH]1 | human, idiopathic pulmonary fibrosis | 60 mg once daily, trial, treatment-emergent | patients with Proteinuria | 0%
